# Experimental data of several laboratories.
# ± marks the error that the study gave.
Compound,tested on,assay,system,setting,how to read,endpoint,value
CN1CCN(C2(CNC3CCN(c4cccc(-c5cc6cc(F)ccc6[nH]5)c4)CC3)CCC2)CC1,SNB-75,,,,,CC50,5.79 µM
C/C=C(/C)C(=O)O[C@H]1C(C)=C2[C@H]([C@@H]1OC(=O)CCCCCCC)[C@@](C)(OC(C)=O)C[C@H](OC(=O)CCC)[C@@]1(O)[C@H]2OC(=O)[C@@]1(C)O,HEK293T,"RNA-seq, refers to: MTHFR mRNA",,"10 µM, 6 h",reference: vehicle,log2 fold change,-0.205
CC(C)CN1CCc2ccc(Br)cc21,Plasmodium falciparum,,HB3,,,IC50,12.6 µM
CC[C@H](C)[C@@H]1NC(=O)[C@@H]2CCCN2C(=O)[C@H](CC(C)C)NC(=O)[C@H](CC(C)C)NC(=O)CNC(=O)[C@@H](NC(=O)[C@@H](NC(=O)[C@H](CC(=O)O)NC(=O)CNC(=O)[C@@H](NC(=O)[C@H](C)NC(=O)CNC(=O)[C@H](CCCCN)NC(=O)[C@H](CC(C)C)NC(=O)[C@H](CC(C)C)NC(=O)[C@H](CCCCN)NC(=O)CNC(=O)[C@@H](NC(=O)[C@@H](N)CC(C)C)C(C)C)C(C)C)C(C)C)CSSC[C@@H](C(=O)O)NC1=O,,"RNA-seq, refers to: Tmem154","mouse, traumatic brain injury model, frontal cortex and hippocampus",dose not given,reference: TBI alone,log2 fold change,-2.14
Nc1ncc(-c2nc(N3CCOCC3)nc(N3CCOCC3)n2)c(C(F)F)n1,Jurkat E6-1,cell growth,,72 h,,GI50,0.465 µM
C[C@@H]1CC[C@H]2[C@@H](C)C(=O)O[C@@H]3O[C@@]4(C)CC[C@@H]1[C@]32OO4,Plasmodium falciparum,,HB3,,,IC50,0.025 µM
O=S(=O)(c1ccc(O)cc1)c1ccc(O)cc1,HepG2 spheroids,Hoechst flow cytometry,,"0.01 µM, 96 h",,G1 phase cells,70.8 ± 0.86%
C[C@H]1CN(c2n[nH]c3nc(N[C@H]4CC[C@H](NS(=O)(=O)CCC(F)(F)F)CC4)ncc23)CCO1,"Putative ribosomal protein uL10-like (RPLP0P6, Homo sapiens, UniProt Q8NHW5)","competitor, Kinobeads competition, refers to: RPLP0-like",human cell extract,0.032 µM,reference: vehicle,relative abundance,0.98
CO[C@H]1C[C@@H]2CC[C@@H](C)[C@@](O)(O2)C(=O)C(=O)N2CCCC[C@H]2C(=O)O[C@H]([C@H](C)C[C@@H]2CC[C@@H](OC(=O)NCCOCCOCCOCCOCCOCCOCCOCCOCCC(=O)N3CCc4cc(Cn5nc(-c6ccc7oc(N)nc7c6)c6c(N)ncnc65)ccc4C3)[C@H](OC)C2)C[C@@H](O)[C@H](C)/C=C(\C)[C@@H](O)[C@@H](OC)C(=O)[C@H](C)C[C@H](C)/C=C/C=C/C=C/1C,,,patients with advanced solid tumours,"intravenous, 12 mg weekly, grade 3 or higher",,decreased appetite incidence,8.3%
COc1c(C)c2c(c(O)c1C/C=C(\C)CCC(=O)O)C(=O)OC2,Hs 729,cell proliferation,,,,IC50,3.02 µM
COc1cc(CCC[P+](c2ccccc2)(c2ccccc2)c2ccccc2)c(OC)c2c1OCO2.[I-],SK-OV-3,SRB,,,,GI50,-5.7 log M
Nc1ncnc2c1ncn2[C@@H]1O[C@@H]2COP(=O)(O)O[C@H]3[C@@H](O)[C@H](n4cnc5c(=O)[nH]cnc54)O[C@@H]3COP(=O)(O)O[C@H]2[C@H]1O,HFF-1,"RNA sequencing, refers to: Reactome Interferon alpha/beta signaling",,upregulated pathways,reference: mock,fold enrichment,24.6
COc1c(CCC[P+](c2ccccc2)(c2ccccc2)c2ccccc2)cc2c(c1OC)OCO2.[I-],SNB-75,SRB,,,,GI50,-5.89 log M
COc1ccc2c(c1)[nH]c1c(C)nccc12,DU-145,"bisulfite pyrosequencing, refers to: RASSF1A promoter CpG site 9",,concentration not given,reference: vehicle,methylation reduction,2.84%
CC(C)N1CCC(NC2CCN(c3cccc(-c4cc5cc(F)ccc5[nH]4)c3)CC2)CC1,SK-OV-3,,,,,CC50,5.8 µM

# Some of these lines once more:
Compound,tested on,assay,system,setting,how to read,endpoint,value
Nc1ncc(-c2nc(N3CCOCC3)nc(N3CCOCC3)n2)c(C(F)F)n1,Jurkat E6-1,cell growth,,72 h,,GI50,0.465 µM
CC(C)CN1CCc2ccc(Br)cc21,Plasmodium falciparum,,HB3,,,IC50,12.6 µM
